# Assay results from different studies.
# A part holds a random share of what one study measured. Several values in a cell are separate wells, animals, samples, runs or records. ± marks the error that the study gave.
# Sequence of UniProt Q96D53 (whole entry, looked up): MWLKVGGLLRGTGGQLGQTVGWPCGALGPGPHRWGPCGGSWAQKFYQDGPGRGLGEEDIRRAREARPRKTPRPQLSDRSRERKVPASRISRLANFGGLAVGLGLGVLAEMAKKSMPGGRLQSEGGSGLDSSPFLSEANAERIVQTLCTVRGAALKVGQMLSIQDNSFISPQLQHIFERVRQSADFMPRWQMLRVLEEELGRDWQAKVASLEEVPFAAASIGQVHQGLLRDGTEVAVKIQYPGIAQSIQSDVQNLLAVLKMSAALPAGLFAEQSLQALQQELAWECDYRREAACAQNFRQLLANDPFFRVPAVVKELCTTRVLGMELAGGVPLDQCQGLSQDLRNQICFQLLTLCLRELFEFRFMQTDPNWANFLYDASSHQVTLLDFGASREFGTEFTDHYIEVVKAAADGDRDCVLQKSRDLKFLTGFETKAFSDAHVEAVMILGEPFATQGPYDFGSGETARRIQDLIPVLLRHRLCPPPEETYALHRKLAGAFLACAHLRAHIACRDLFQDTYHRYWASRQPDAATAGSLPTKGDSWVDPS

# Sample 1
# Structure (SMILES): CCC1(c2cccc(-c3cn(C)nc3C)c2)C2=C(Nc3n[nH]cc31)C(F)C(C)(C)CC2=O (single isomer, unassigned)
# Tested at: 1 µM
target,assay,how to read,remaining binding
"CDK7 (Homo sapiens, UniProt P50613)","kinase binding, KINOMEscan",reference: DMSO control,100%
"PIK3CA (Homo sapiens, UniProt P42336, E545A)","kinase binding, KINOMEscan",reference: DMSO control,96%
"CAMKK1 (Homo sapiens, UniProt Q8N5S9)","kinase binding, KINOMEscan",reference: DMSO control,100%
"RIPK1 (Homo sapiens, UniProt Q13546)","kinase binding, KINOMEscan",reference: DMSO control,100%
"PRKD3 (Homo sapiens, UniProt O94806)","binding, competition with immobilised ligand",,77%
"FLT1 (Homo sapiens, UniProt P17948)","binding, competition with immobilised ligand",,100%
"MELK (Homo sapiens, UniProt Q14680)","kinase binding, KINOMEscan",reference: DMSO control,95%
"EGFR (Homo sapiens, UniProt P00533, del747-750/T751S)","kinase binding, KINOMEscan",reference: DMSO control,89%
"DAPK1 (Homo sapiens, UniProt P53355)","kinase binding, KINOMEscan",reference: DMSO control,87%
"RAF1 (Homo sapiens, UniProt P04049)","binding, competition with immobilised ligand",,97%
"MKNK1 (Homo sapiens, UniProt Q9BUB5)","kinase binding, KINOMEscan",reference: DMSO control,100%
"NEK9 (Homo sapiens, UniProt Q8TD19)","kinase binding, KINOMEscan",reference: DMSO control,100%
"DCLK3 (Homo sapiens, UniProt Q9C098)","kinase binding, KINOMEscan",reference: DMSO control,85%

# Sample 2
# Structure (SMILES): Cc1ncsc1-c1ccc(C(CO)NC(=O)C2CC(O)CN2C(=O)C(C(C)C)n2cc(-c3ccc(COc4c(-c5c(C)c(F)cc6[nH]ncc56)c(C5CC5)cc5c(N6CC7CC6CN7)nc(OC6CCOCC6)nc45)cc3)nn2)cc1 (centres unmarked)
system,conditions,body weight
"mouse, lung LXFA sample A PDX","10 mg/kg twice weekly, day 9",26.5 g
"mouse, A-375 xenograft","sc, 30 mg/kg once daily, day 3",19.8 g and 18.7 g and 18.8 g and 17.7 g
"mouse, HT-29 xenograft","sc, 30 mg/kg once daily, day 8",18.9 g and 18.1 g and 20.6 g and 17.1 g and 20.8 g
"mouse, HT-29 xenograft","sc, 30 mg/kg once daily, day 10",21 g and 19.4 g and 20.7 g and 18.4 g and 17 g
"mouse, PK-59 xenograft","subcutaneous, 30 mg/kg once daily, day 15",19.7 g and 18.1 g and 20.1 g and 19.6 g
"mouse, PK-59 xenograft","0.3 mg/kg, day 10",25.4 g and 24.9 g and 25.2 g

# Sample 3
# Target: Cyclin-dependent kinase 12, with cyclin K (CDK12, Homo sapiens, UniProt Q9NYV4)
# Sequence of UniProt Q9NYV4 (whole entry, looked up): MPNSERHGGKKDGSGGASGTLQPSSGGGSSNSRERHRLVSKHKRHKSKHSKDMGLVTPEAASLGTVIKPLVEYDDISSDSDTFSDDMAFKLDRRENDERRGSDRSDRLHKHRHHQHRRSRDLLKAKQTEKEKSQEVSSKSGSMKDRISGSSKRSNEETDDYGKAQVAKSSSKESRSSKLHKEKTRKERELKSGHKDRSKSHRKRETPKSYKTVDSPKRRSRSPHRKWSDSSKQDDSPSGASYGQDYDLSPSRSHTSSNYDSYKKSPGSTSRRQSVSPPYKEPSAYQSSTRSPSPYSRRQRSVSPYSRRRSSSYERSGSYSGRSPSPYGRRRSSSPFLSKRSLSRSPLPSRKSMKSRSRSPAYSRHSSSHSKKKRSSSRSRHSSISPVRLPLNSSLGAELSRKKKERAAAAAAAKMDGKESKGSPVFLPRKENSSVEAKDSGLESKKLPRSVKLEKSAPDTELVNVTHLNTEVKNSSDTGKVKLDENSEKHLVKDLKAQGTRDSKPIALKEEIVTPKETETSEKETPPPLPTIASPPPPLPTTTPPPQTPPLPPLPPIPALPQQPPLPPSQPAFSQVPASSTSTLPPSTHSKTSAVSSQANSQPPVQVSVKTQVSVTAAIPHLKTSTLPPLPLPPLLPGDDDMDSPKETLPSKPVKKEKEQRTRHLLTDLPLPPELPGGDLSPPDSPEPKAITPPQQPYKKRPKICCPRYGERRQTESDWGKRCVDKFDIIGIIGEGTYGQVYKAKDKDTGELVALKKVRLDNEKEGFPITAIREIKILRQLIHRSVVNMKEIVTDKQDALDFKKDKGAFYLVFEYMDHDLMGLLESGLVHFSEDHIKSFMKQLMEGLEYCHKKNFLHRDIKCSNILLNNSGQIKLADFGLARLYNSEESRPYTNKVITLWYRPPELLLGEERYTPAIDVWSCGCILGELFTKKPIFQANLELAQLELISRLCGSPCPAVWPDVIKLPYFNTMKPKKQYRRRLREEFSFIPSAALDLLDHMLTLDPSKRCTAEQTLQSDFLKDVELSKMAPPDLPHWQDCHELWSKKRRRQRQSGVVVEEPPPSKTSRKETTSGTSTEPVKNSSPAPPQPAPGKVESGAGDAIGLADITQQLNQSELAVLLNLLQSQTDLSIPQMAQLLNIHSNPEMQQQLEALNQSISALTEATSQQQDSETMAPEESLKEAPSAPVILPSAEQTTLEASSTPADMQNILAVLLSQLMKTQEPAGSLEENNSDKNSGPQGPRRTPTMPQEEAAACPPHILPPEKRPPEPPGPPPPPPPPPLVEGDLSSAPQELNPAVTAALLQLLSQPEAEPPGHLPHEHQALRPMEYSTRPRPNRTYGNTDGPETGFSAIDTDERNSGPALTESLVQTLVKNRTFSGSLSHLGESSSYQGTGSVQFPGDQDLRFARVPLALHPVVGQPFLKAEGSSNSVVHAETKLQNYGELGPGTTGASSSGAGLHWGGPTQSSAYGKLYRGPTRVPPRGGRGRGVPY
# Observed: kinase activity
# Action: inhibitor
# Method: ADP-Glo
# Tested at: 0.0027 µM
Compound,inhibition [%]
CCn1cnc2c(NCc3nc4cc(Cl)c(Cl)cc4[nH]3)nc(N3CCN(Cc4ccncc4)CC3)nc21,-12.8
CCn1cnc2c(NCc3nc4cc(Cl)c(Cl)cc4[nH]3)nc(N3CCN(C(=O)c4ccncc4)CC3)nc21,2.6
CCn1cnc2c(NCc3nc4cc(Cl)c(Cl)cc4[nH]3)nc(N3CCC(NC(C)=O)CC3)nc21,-6.5
CCn1cnc2c(NCc3nc4ccc(F)c(F)c4[nH]3)nc(N3CCn4ncnc4C3)nc21,8
CCn1cnc2c(NCc3nc4cc(F)c(F)cc4[nH]3)nc(N3CCn4ncnc4C3)nc21,8.4
CCn1cnc2c(NCc3nc4cc(Cl)c(Cl)cc4[nH]3)nc(N3CCN(C(=O)c4cccnc4)CC3)nc21,-14.4
CCn1cnc2c(NCc3nc4cc(Cl)c(Cl)cc4[nH]3)nc(N3CCN(c4ccccn4)CC3)nc21,3.7
CCCCOc1nc(NCc2nc3cc(Cl)c(Cl)cc3[nH]2)c2ncn(CC)c2n1,6.2
CC(=O)N1CCN(c2nc(NCc3nc4cc(Cl)c(Cl)cc4[nH]3)c3ncn(-c4cnn(C)c4)c3n2)CC1,-6

# Sample 4
# Structure (SMILES): COc1cc(-c2nc3ccc(C(=O)NCCCN4CCN(c5cccc(C)c5C)CC4)cc3n2C2CCC2)cc(OC)c1OC
# Observed: binding
# Method: competition with immobilised ligand
# Tested at: 1 µM
target,remaining binding [%]
"Myosin-IIIa (MYO3A, Homo sapiens, UniProt Q8NEV4)",95
"PRPF4B (Homo sapiens, UniProt Q13523)",100
"RIPK2 (Homo sapiens, UniProt O43353)",54
"MAPK15 (Homo sapiens, UniProt Q8TD08)",99
"TSSK1B (Homo sapiens, UniProt Q9BXA7)",95
"IGF1R (Homo sapiens, UniProt P08069)",77
"PIK3CB (Homo sapiens, UniProt P42338)",94
"KIT (Homo sapiens, UniProt P10721, D816H)",71
"CDK9 (Homo sapiens, UniProt P50750)",100
"PAK5 (Homo sapiens, UniProt Q9P286)",95
"MAPK8 (Homo sapiens, UniProt P45983)",97
"CAMK1D (Homo sapiens, UniProt Q8IU85)",95
"COQ8B (Homo sapiens, UniProt Q96D53)",99
"CDK14 (Homo sapiens, UniProt O94921)",94
"Ribosomal protein S6 kinase alpha-2, N-terminal kinase domain (RPS6KA2, Homo sapiens, UniProt Q15349)",81
"Tyrosine-protein kinase ABL1, phosphorylated (ABL1, Homo sapiens, UniProt P00519, Y253F)",86
"Tyrosine-protein kinase ABL1, non-phosphorylated (ABL1, Homo sapiens, UniProt P00519, F317L)",67
"PAK2 (Homo sapiens, UniProt Q13177)",100

# Sample 5
# SMILES: Cc1ccc(O)c(C)c1-c1cnc2[nH]c(-c3cnc(N4CCC(CN5CCN(c6cc7c(cc6F)c(N6CCC(=O)NC6=O)nn7C)CC5)CC4)nc3)cc2c1C#N
# Target: Membrane-associated tyrosine- and threonine-specific cdc2-inhibitory kinase (PKMYT1, Homo sapiens, UniProt Q99640)
# Sequence of UniProt Q99640 (whole entry, looked up): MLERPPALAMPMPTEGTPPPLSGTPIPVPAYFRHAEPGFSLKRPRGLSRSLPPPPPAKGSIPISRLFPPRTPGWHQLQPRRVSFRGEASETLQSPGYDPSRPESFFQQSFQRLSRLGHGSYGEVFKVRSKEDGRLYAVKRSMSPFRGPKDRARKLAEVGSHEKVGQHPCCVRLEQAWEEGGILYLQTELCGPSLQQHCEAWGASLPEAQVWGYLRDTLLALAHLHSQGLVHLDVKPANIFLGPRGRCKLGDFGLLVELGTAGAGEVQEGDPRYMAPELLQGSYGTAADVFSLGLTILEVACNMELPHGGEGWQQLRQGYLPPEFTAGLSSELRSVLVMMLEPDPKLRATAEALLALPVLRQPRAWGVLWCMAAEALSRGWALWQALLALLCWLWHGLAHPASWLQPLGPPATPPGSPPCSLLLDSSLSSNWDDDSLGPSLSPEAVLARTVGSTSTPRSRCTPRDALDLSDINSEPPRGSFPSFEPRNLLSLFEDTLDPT
assay,conditions,inhibition
"cell-free assay, inhibitor, TR-FRET",152 pM,-2.87%
,0.3333 µM,99.7%
,5.1e-05 µM,3.21%
"cell-free assay, inhibitor, TR-FRET",12.35 nM,79.7%
"cell-free assay, inhibitor, TR-FRET",4.12 nM,45.3%
"cell-free assay, inhibitor, TR-FRET",37.04 nM,95.3%
"cell-free assay, inhibitor, TR-FRET",51 pM,-3.96%
"cell-free assay, inhibitor, TR-FRET",1 µM,101%

# Sample 6
# SMILES: COc1cc(C(=O)OCCCN2CCCN(CCCOC(=O)c3cc(OC)c(OC)c(OCc4ccc([N+](=O)[O-])cc4)c3)CC2)cc(OC)c1OC
# Target: Equilibrative nucleoside transporter 1 (SLC29A1, Homo sapiens, UniProt Q99808, del243-274/L168F/N288K/P175A)
# Sequence of UniProt Q99808 (whole entry, unmodified, looked up): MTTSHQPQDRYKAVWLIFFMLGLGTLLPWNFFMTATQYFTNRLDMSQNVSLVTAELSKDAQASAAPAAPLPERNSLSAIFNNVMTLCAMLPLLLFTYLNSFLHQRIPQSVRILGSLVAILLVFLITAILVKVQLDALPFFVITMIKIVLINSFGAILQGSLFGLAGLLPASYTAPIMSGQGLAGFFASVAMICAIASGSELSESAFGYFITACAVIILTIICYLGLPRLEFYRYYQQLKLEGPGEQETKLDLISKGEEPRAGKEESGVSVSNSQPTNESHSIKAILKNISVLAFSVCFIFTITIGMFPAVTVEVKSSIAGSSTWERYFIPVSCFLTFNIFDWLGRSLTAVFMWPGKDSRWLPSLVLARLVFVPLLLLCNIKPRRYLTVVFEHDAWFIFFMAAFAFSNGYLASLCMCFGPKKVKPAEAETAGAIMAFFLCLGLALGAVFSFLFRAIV
# Action: competitor
# Method: scintillation proximity
conditions,[3H]NBMPR binding
21850 nM,-1.26% and 1.07% and -0.477% and 0.193% and -0.311% and 0.789%
9.314 nM,86.4% and 106% and 80.5% and 93.3% and 94.3% and 82.1%
38.98 nM,93% and 60.9% and 57.6% and 70.2% and 71.2% and 58.5%
1.869 nM,107% and 89.8% and 95.5% and 94.6% and 97.5% and 96.2%

# Sample 7
# SMILES: C[C@@H]1CN(c2ccc(-c3cc(C(=O)NCCOCCOCCOCCOCCOCCOCCNC(=O)/C=C/c4[nH]cc(C(=O)N[C@@H](CC(N)=O)c5ccc(F)c(Cl)c5)c4-c4ccc(Cl)cc4F)ccc3F)cc2NC(=O)c2ccc(F)cc2C(F)(F)F)C[C@H](C)N1C
# Observed: thermal unfolding
# Method: differential scanning fluorimetry
# Tested at: 5.5 µM
# Direction: higher = more unfolded
# DCAF1: DDB1- and CUL4-associated factor 1 (DCAF1, Homo sapiens, UniProt Q9Y4B6)
# WDR5: WD repeat-containing protein 5 (WDR5, Homo sapiens, UniProt P61964)
target,conditions,SYPRO Orange fluorescence [a.u.]
DCAF1,30.6 °C,8560
WDR5,74.61 °C,47000
WDR5,41.8 °C,14300
DCAF1,83.21 °C,37500
DCAF1,25.4 °C,7470
DCAF1,52.61 °C,21500
WDR5,74.21 °C,45300
WDR5,48.8 °C,15800
DCAF1,77.21 °C,41900
DCAF1,77.61 °C,41600
WDR5,42 °C,14300

# Sample 8
# Structure (SMILES): CCN1/C(=C/C=C2\CCCC(/C=C/C3=[N+](CC)c4ccccc4C3(C)C)=C2NCCCCCCCCN2CCC(Nc3nc4ccccc4n3Cc3ccc(F)cc3)CC2)C(C)(C)c2ccccc21
# Cell line: U-87 MG
# Tested at: concentration not given
# Reference: DMSO
assay,log2 fold change
item: SIM1 mRNA,-1.98
item: TGFBR3 mRNA,-1.92
item: RCC2 mRNA,-0.803
item: HMGB3 mRNA,-1.25
item: PLK4 mRNA,-2.21
item: MIDN mRNA,-1.15
item: GAS1 mRNA,-3.13
item: KCTD16 mRNA,1.74
item: PIMREG mRNA,-1.9
item: SLAIN1 mRNA,1.82
item: AP1AR mRNA,1.03
item: GOLIM4 mRNA,-0.828
item: KPNA2 mRNA,-1.18
item: CTHRC1 mRNA,-2.14
item: IL6 mRNA,4.6
item: POLQ mRNA,-1.97

# Further values, each from its own experiment
# E3 ubiquitin-protein ligase NEDD4: E3 ubiquitin-protein ligase NEDD4 (Homo sapiens, UniProt P46934)
# Sequence of UniProt P46934 (whole entry, looked up): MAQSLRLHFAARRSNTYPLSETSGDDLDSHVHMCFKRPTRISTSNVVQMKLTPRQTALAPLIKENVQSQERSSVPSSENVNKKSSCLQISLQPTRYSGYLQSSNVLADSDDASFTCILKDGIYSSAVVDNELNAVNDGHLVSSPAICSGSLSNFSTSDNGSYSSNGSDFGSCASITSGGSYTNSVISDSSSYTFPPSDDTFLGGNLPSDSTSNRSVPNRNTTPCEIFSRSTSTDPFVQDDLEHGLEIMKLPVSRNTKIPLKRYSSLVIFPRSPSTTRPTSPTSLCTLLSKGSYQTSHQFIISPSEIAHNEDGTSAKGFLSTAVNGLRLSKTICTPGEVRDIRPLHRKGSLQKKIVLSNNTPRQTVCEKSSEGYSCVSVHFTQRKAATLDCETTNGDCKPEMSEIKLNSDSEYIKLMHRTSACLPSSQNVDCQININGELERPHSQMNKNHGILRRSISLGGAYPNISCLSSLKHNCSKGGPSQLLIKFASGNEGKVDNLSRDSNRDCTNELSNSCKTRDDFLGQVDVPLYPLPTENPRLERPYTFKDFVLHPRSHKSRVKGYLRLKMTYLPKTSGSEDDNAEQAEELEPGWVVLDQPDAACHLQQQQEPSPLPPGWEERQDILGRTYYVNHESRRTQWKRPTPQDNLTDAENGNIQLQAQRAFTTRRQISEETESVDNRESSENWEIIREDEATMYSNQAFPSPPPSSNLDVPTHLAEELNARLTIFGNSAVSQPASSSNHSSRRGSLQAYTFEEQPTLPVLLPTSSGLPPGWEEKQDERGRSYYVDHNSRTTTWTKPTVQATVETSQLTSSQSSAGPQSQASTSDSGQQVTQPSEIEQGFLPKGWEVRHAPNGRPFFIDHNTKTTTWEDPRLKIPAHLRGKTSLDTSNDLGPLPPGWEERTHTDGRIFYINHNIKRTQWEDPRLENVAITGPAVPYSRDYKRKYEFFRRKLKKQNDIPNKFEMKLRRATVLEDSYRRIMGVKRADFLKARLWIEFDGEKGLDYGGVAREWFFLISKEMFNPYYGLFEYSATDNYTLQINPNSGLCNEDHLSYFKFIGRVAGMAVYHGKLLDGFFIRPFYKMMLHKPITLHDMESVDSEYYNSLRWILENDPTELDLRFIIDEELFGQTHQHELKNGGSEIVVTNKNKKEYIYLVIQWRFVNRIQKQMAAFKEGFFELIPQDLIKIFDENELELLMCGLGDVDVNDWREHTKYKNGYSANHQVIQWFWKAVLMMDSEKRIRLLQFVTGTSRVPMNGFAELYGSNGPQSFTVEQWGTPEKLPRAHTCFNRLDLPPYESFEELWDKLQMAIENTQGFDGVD
# SLC6A19: Sodium-dependent neutral amino acid transporter B(0)AT1 (SLC6A19, Homo sapiens, UniProt Q695T7)
# Sequence of UniProt Q695T7 (whole entry, looked up): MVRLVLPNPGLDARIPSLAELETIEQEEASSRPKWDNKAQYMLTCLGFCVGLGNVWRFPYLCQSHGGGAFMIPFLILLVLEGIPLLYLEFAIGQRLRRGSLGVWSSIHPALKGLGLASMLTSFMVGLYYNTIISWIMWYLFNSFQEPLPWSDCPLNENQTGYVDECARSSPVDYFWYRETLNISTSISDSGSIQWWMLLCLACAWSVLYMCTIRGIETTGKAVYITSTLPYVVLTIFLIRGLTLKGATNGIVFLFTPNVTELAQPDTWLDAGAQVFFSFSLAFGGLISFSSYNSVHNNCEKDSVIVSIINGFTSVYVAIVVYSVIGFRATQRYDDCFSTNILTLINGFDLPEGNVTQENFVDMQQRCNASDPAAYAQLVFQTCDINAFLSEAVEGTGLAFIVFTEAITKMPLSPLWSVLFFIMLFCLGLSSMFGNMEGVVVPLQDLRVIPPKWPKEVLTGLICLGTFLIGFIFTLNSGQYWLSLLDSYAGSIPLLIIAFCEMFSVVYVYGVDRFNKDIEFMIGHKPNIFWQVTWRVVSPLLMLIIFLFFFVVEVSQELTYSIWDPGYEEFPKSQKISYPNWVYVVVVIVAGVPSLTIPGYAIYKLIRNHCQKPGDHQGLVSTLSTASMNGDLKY
Structure (SMILES),tested on,assay,system,conditions,measurement,value
Cl.NC(=O)/C=C/CNCCCN1c2ccccc2CCc2ccc(Cl)cc21,E3 ubiquitin-protein ligase NEDD4,"enzyme activity, inhibitor, TR-FRET",,11 µM,inhibition,20.7%
CC(C)NC(=O)COc1ccc(Br)cc1,SLC6A19,"inhibitor, L-[14C]leucine uptake",CHO-BC cells,second repeat,IC50,6.59 µM
N#C/C=C/CNCCCCN1c2ccccc2CCc2ccc(Cl)cc21.O=C(O)/C=C\C(=O)O,,,human liver microsomes,1 µM,intrinsic clearance,133 ± 10.3 µL/min/mg protein
CC(C)NC(=O)COc1ccc(I)cc1,SLC6A19,"inhibitor, L-[14C]leucine uptake",CHO-BC cells,second repeat,IC50,4.2 µM
CN(C)C(=O)/C=C/CNCCCN1c2ccccc2CCc2ccc(Cl)cc21.Cl,E3 ubiquitin-protein ligase NEDD4,"enzyme activity, inhibitor, TR-FRET",,33 µM,inhibition,23.3%
CCCNC(=O)COc1ccc(I)c(C)c1,SLC6A19,"inhibitor, FLIPR membrane potential",CHO-BC cells,0.001 µM,normalised transport activity,0.942
COC(=O)/C=C/C(=O)NCCCN1c2ccccc2CCc2ccc(Cl)cc21,E3 ubiquitin-protein ligase NEDD4,"enzyme activity, inhibitor, TR-FRET",,11 µM,inhibition,< 10%
